Experimental data from different studies.
A part holds a random share of what one study measured. Positions count from the first letter of the parent shown.

Series 1 — method: RNAcompete; molecule type: RNA; sample: in vitro; tested at: 20 nM; notes: 7-mer, probes averaged, single round; reference: mean of 7-mers; direction: higher = stronger binding
Target: PABPC1L2, full length, GST fusion (mouse, UniProt A0ABA7IW68)
Residues (chain): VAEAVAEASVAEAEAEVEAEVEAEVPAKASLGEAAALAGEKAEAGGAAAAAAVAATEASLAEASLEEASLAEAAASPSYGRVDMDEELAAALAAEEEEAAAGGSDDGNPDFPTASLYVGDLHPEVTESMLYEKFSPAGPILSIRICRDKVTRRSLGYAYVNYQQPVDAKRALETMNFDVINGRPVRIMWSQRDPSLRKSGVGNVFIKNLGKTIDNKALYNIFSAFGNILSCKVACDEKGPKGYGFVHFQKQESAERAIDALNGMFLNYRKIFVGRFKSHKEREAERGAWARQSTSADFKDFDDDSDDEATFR
`GGUACCC` has a 7-mer Z-score of -0.349.
With `GGAAACC` the 7-mer Z-score was -0.153.
`UGUAUGC` gave a 7-mer Z-score of -0.235.
`CUAUCGU` gave a 7-mer Z-score of -0.353.
`GGAAGAA` has a 7-mer Z-score of 0.548.
With `AGUUCAU` the 7-mer Z-score was -0.112.
`GGACUGU` gave a 7-mer Z-score of 0.0243.
With `CGGGGCC` the 7-mer Z-score was -0.151.

Series 2 — target: DDIT3, bZIP domain (human); method: DHFR protein complementation; sample: yeast; reference: wild-type JUN-FOS pair; direction: higher = stronger binding
Notes: single substitutions, most at no-binding floor
Starting sequence: JUN, bZIP domain (human); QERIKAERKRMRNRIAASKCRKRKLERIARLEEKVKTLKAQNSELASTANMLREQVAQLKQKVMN; partner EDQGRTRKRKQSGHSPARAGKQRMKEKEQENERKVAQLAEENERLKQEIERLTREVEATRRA
The binding fitness of `L45D` is reported as -1.4 natural log.
With `K39A` the binding fitness was -0.00638 natural log.
The binding fitness of `K39H` is reported as -0.046 natural log.
With `T37F` the binding fitness was 0.116 natural log.
With `R30I` the binding fitness was 0.00196 natural log.
The binding fitness of `L31M` is reported as -0.0979 natural log.
`A40C` has a binding fitness of -0.142 natural log.
`L45H` gave a binding fitness of -1.19 natural log.

Series 3 — method: competition protein-binding microarray; molecule type: double-stranded DNA, one strand shown; sample: in vitro; tested at: 2 µM; with: Pho4 competitor, 0.05 µM; direction: higher = stronger binding; constant ends, left off below: … GTCTTGATTCGCTTGACGCTGCTG
Target: Centromere-binding protein 1, full length, His-tagged (CBF1, Saccharomyces cerevisiae, UniProt P17106, residues 1-351)
UniProt P17106, sequence (whole entry, looked up): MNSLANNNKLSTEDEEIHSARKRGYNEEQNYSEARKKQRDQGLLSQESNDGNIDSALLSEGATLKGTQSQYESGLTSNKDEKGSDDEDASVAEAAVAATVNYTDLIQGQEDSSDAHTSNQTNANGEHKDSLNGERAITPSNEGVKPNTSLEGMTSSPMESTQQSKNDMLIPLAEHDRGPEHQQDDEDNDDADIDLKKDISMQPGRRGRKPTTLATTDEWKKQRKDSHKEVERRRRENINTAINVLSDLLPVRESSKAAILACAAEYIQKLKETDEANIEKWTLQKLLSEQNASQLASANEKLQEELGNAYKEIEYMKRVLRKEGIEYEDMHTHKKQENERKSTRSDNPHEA
Notes: whole 60-bp probe, lowest competitor level
With `TGGTATATTGCCGTTTTCTGTATCAGTTGCTGATAT` the fluorescence intensity was 104 a.u.
With `AAAGCGGTAATTTGTTACGTGGGTGCAGATATCTAT` the fluorescence intensity was 80.1 a.u.
For `ATGAGAAGCGCAAATGTCGTGATGGCAATAGCCCGG`, the fluorescence intensity was 98.4 a.u.
For `TCCACCTTTGAAAACGGTGTGACGAAGCCCTTTCGA`, the fluorescence intensity was 63.3 a.u.
For `CCTTTGAAACGTACCCACGCATTTGCTAAAGAAAAA`, the fluorescence intensity was 66.7 a.u.
`AAATTACTAAGTTGGATCGTGGGTGACGCCGTATGA` gave a fluorescence intensity of 63.9 a.u.
For `GGAGCCCTTGCACTCCACGTGGCCTGCCTCCCTGGG`, the fluorescence intensity was 444 a.u.
For `CATGATTTTTGCTTTGGCATTGTTCTGGTATGGTAT`, the fluorescence intensity was 145 a.u.

Single results of other studies
Starting sequence: PafA, mature enzyme, eGFP fusion (Elizabethkingia meningoseptica, UniProt Q9KJX5); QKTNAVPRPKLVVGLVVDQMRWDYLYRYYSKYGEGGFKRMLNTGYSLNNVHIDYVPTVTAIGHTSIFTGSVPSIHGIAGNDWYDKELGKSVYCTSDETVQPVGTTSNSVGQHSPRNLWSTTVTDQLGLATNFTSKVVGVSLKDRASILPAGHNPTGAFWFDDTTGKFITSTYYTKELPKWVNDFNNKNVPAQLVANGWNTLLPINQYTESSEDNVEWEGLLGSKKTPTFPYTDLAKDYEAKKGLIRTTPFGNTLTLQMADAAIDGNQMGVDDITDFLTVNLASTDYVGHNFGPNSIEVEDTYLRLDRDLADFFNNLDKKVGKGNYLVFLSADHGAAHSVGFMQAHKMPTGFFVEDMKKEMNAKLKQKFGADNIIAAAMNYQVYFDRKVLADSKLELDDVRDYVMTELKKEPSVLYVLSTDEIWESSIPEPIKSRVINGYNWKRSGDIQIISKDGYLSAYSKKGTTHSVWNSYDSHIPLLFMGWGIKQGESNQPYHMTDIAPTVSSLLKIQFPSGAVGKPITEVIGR
`N131V` — result for “oxyanion analog dissociation constant”: 755 nM (vanadate, free oxyanion; microfluidic competitive inhibition; in vitro, cell-free expressed; not given, derived from inhibition constants, unchanged parent 676 nM; lower = stronger binding).

Repeated from above (series 3):
For `ATGAGAAGCGCAAATGTCGTGATGGCAATAGCCCGG`, the fluorescence intensity was 98.4 a.u.
For `TCCACCTTTGAAAACGGTGTGACGAAGCCCTTTCGA`, the fluorescence intensity was 63.3 a.u.
For `CCTTTGAAACGTACCCACGCATTTGCTAAAGAAAAA`, the fluorescence intensity was 66.7 a.u.
